Published values gathered from unrelated publications.
Each line is one published result; not all experiments were run side by side. ± marks the error that the study gave.

Compound	target or system	assay	system	setting	how to read	quantity	result
CCCCCCCCC1=C(C(CCCCCCC(=O)OC)OC)C1 (stereo not drawn)	Toxoplasma gondii	parasite-induced cytopathic effect	Vero, RH	24 h	–	EC50	248000 ± 17900 nM
O=c1ccn(CCCCCOc2ccc(Br)cc2)c(=O)n1Cc1ccc2ccccc2c1	human betaherpesvirus 5	plaque formation	HEL, Davis	–	–	EC50	> 4000 nM
O=C(N[C@@H](Cc1ccccc1)C(=O)N[C@@H](C[C@H]1CCNC1=O)C(=O)C(=O)NC1CC1)OCc1ccccc1	Enterovirus D68	viral replication	WI-38	37 °C	–	EC50	30 ± 10 nM
[64Cu+2].c1cnc(CNCc2ccc(CN3CCCN4CCNCCCN(CC4)CC3)cc2)nc1	CXCR4	–	NOD/SCID mouse, U87 and U87-stb-CXCR4 xenografts, spleen	iv, 120 min, ex vivo	–	tissue uptake	15.8 ± 4.04 %ID/g
COC(=O)/C=C/c1ccc(OCCNS(=O)(=O)c2ccccc2F)c(OC)c1	tobacco mosaic virus	inactivation activity, half-leaf method	–	–	–	EC50	266 ± 8.7 µg/mL
CCCCCCCCCCCCCCCC(=O)NCCCC[C@H](N)C(=O)N[C@@H](CC(=O)O)C(=O)N[C@H](C(=O)N[C@@H](Cc1c[nH]cn1)C(=O)N[C@@H](Cc1ccccc1)C(=O)N[C@@H](CCCNC(=N)N)C(=O)N[C@H](C(=O)N[C@@H](Cc1ccccc1)C(=O)N[C@@H](CCCNC(=N)N)C(=O)N[C@@H](CO)C(=O)N[C@@H](Cc1c[nH]cn1)C(=O)N[C@@H](CO)C(=O)N[C@@H](CC(=O)O)C(=O)N[C@@H](Cc1ccc(O)cc1)C(=O)N[C@@H](CCCNC(=N)N)C(=O)N[C@@H](CCCNC(=N)N)C(=O)N[C@H](C(=O)O)[C@@H](C)CC)[C@@H](C)O)[C@@H](C)O	–	–	C57BL/6J mouse, MCD diet	intraperitoneal, 0.6 nmol/g, 3 weeks, 3 times weekly	–	serum triglycerides	58.6 ± 7.5 mg/dL
C=CC(=O)Nc1cc(Nc2nccc(-c3cn(C)c4ccccc34)n2)c(OCC(F)(F)F)nc1N(C)CCN(C)C	CYP2C19 (Homo sapiens, UniProt P33261)	enzyme activity, inhibitor	human, liver microsomes	1 µM	–	activity vs control	109%
COC(=O)c1cnc(-c2cnccn2)cc1C(=O)OC.COC(=O)c1cnc(-c2cnccn2)cc1C(=O)OC.O.O.O.O=S(=O)([O-])C(F)(F)F.O=S(=O)([O-])C(F)(F)F.[Cu+2]	calf thymus DNA	ethidium bromide displacement	–	–	–	quenching rate constant	2.63e+10 M⁻¹ s⁻¹
CCCCCCCCC1=C(CCCCCCCCC(=O)OC)C1	Toxoplasma gondii	parasite-induced cytopathic effect	Vero, RH	24 h	–	EC50	428000 ± 15700 nM
CCCCOC(=O)/C=C/c1ccc(OCCNS(=O)(=O)c2ccc(C)cc2)c(OC)c1	tobacco mosaic virus	inactivation activity, half-leaf method	–	–	–	EC50	542 ± 8.9 µg/mL
O=c1ccn(CCCCCOc2ccc(Br)cc2)c(=O)n1Cc1c2ccccc2cc2ccccc12	human betaherpesvirus 5	plaque formation	HEL, Davis	–	–	EC50	> 4000 nM
CC(C)C[C@H](NC(=O)OCc1ccccc1)C(=O)N[C@@H](C[C@H]1CCNC1=O)C(=O)C(=O)NC1CC1	human rhinovirus 51	viral replication	WI-38	37 °C	–	EC50	70 ± 10 nM
CCCC[C@H](NC(=O)CCCCCCCNC(=O)CN1CCN(CC(=O)O)CCN(CC(=O)O)CC1)C(=O)N[C@H]1CC(=O)NCCCC[C@@H](C(N)=O)NC(=O)[C@H](Cc2c[nH]c3ccccc23)NC(=O)[C@H](CCCNC(=N)N)NC(=O)[C@@H](Cc2ccccc2)NC(=O)[C@H](Cc2c[nH]cn2)NC1=O [copper-64 labelled]	–	–	C57 mice, intestine	intravenous, 0.37 MBq, 0.5 h	–	tissue uptake	2.12 ± 0.45 %ID
COC(=O)/C=C/c1ccc(OCCNS(=O)(=O)c2ccc(OC)cc2)c(OC)c1	tobacco mosaic virus	inactivation activity, half-leaf method	–	–	–	EC50	175 ± 11.6 µg/mL
[C-]#[O+].[C-]#[O+].[C-]#[O+].[C-]#[O+].[C-]#[O+].[C-]#[O+].[Cl-].[Cl-].[Re+].[Re+].c1cnc(-c2ncccn2)nc1	calf thymus DNA	ethidium bromide displacement	–	DNA 120 µM, 50% quenching, added: ethidium bromide 8 µM	–	apparent binding constant	1.8e+06 M⁻¹
COc1ccc(NC(=O)N2CCCN3CCC(c4ccc(C#Cc5ccccc5)cc4)C3C2)cc1 (stereo not drawn)	Toxoplasma gondii	parasite growth, luciferase reporter	HFF, RH type I	72 h	–	EC50	270 nM
[64Cu+2].c1ccc(CNCc2ccc(CN3CCCN4CCNCCCN(CC4)CC3)cc2)nc1	CXCR4	–	NOD/SCID mouse, U87 and U87-stb-CXCR4 xenografts, kidney	iv, 90 min, no blocking dose, ex vivo	–	tissue uptake	19.1 ± 1.67 %ID/g
CC(C)C[C@H](NC(=O)OCc1ccccc1)C(=O)N[C@H](C=O)C[C@H]1CCNC1=O	human rhinovirus 1B	viral replication	WI-38	37 °C	–	EC50	1900 ± 1410 nM
Cc1cc(O)c(C=O)c2c1C(=O)Oc1c(CO)c(O)c3c(c1O2)C(O)OC3=O (stereo not drawn)	–	–	streptozotocin-diabetic male albino rats, serum	dose not given, 9 weeks	reference: diabetic control	testosterone level	increased
CC(C)C[C@H](NC(=O)OCc1cccc(Cl)c1)C(=O)N[C@H](C=O)C[C@H]1CCNC1=O	Enterovirus D68	viral replication	WI-38	37 °C	–	EC50	430 ± 40 nM
COc1ccc(NC(=O)N2CCCN3CCC(c4ccc(C#CC5CCCC5)cc4)C3C2)cc1 (stereo not drawn)	Toxoplasma gondii	–	HFF, RH (type I)	–	–	EC50	940 nM
CCCCCCCCC1=C(CCCCCCCC(=O)OC)C1	Toxoplasma gondii	parasite-induced cytopathic effect	Vero, RH	24 h	–	EC50	306000 ± 18800 nM
O=C[C@H](C[C@H]1CCNC1=O)NC(=O)[C@H](CC1CCCCC1)NC(=O)OCc1cccc(Cl)c1	human rhinovirus 1B	viral replication	WI-38	37 °C	–	EC50	700 ± 140 nM
CC[C@H]1[C@@H](O)[C@@H]2[C@H](CC[C@]3(C)[C@@H]([C@H](C)CCOS(=O)(=O)[O-])CC[C@@H]23)[C@@]2(C)CC[C@@H](O)C[C@@H]12.[Na+]	–	–	ob/ob NASH mice, liver	oral, 3 mg/kg once daily, 8 wk	–	liver total cholesterol	24 ± 1.1 mg/g tissue
Cc1ccc(NC(=O)N2CCCN3CCC(c4ccc(C#CC5(O)CCCCC5)cc4)C3C2)cc1 (stereo not drawn)	Toxoplasma gondii	–	HFF, RH (type I)	–	–	EC50	250 nM
O=C([O-])CN1CCN(CC(=O)[O-])CCN(CC(=O)NCCc2ccc3c(c2)C2C=CCC2C(c2cc4c(cc2Br)OCO4)N3)CCN(CC(=O)[O-])CC1.[111In+3] (stereo not drawn)	Hec50 tumour model	–	host not given, blood	30 min, tumour-bearing	–	tracer uptake	3.94 %ID/g
CCOC(=O)/C=C/c1ccc(OCCNS(=O)(=O)c2ccc(F)cc2)c(OC)c1	tobacco mosaic virus	inactivation activity, half-leaf method	–	–	–	EC50	498.9 ± 4 µg/mL
O=C[C@H](C[C@H]1CCNC1=O)NC(=O)[C@H](CC1CCCCC1)NC(=O)OCc1ccccc1	human rhinovirus 1B	viral replication	WI-38	37 °C	–	EC50	650 ± 210 nM
CCOC(=O)/C=C/c1ccc(OCCNS(=O)(=O)c2c(Cl)cccc2Cl)c(OC)c1	tobacco mosaic virus	inactivation activity, half-leaf method	–	–	–	EC50	361 ± 5.1 µg/mL
Cc1ccc(NC(=O)N2CCCN3CCC(c4ccc(C#Cc5cccnc5)cc4)C3C2)cc1 (stereo not drawn)	Toxoplasma gondii	–	HFF, RH (type I)	–	–	EC50	520 nM

Repeated from above:
Compound	target or system	assay	system	setting	how to read	quantity	result
CCCCCCCCCCCCCCCC(=O)NCCCC[C@H](N)C(=O)N[C@@H](CC(=O)O)C(=O)N[C@H](C(=O)N[C@@H](Cc1c[nH]cn1)C(=O)N[C@@H](Cc1ccccc1)C(=O)N[C@@H](CCCNC(=N)N)C(=O)N[C@H](C(=O)N[C@@H](Cc1ccccc1)C(=O)N[C@@H](CCCNC(=N)N)C(=O)N[C@@H](CO)C(=O)N[C@@H](Cc1c[nH]cn1)C(=O)N[C@@H](CO)C(=O)N[C@@H](CC(=O)O)C(=O)N[C@@H](Cc1ccc(O)cc1)C(=O)N[C@@H](CCCNC(=N)N)C(=O)N[C@@H](CCCNC(=N)N)C(=O)N[C@H](C(=O)O)[C@@H](C)CC)[C@@H](C)O)[C@@H](C)O	–	–	C57BL/6J mouse, MCD diet	intraperitoneal, 0.6 nmol/g, 3 weeks, 3 times weekly	–	serum triglycerides	58.6 ± 7.5 mg/dL
Cc1ccc(NC(=O)N2CCCN3CCC(c4ccc(C#Cc5cccnc5)cc4)C3C2)cc1 (stereo not drawn)	Toxoplasma gondii	–	HFF, RH (type I)	–	–	EC50	520 nM
